Results gathered from unrelated publications.
Several values in a cell are separate wells, animals, samples, runs or records. ± marks the error that the study gave.

SMILES = Cc1cn([C@H]2C[C@H](F)[C@@H](CO)O2)c(=O)[nH]c1=O; organism = human adenovirus 2; test = viral cytopathic effect; test system = HEL; EC50 = 3.4 µM
SMILES = C#C[C@@]1(O)[C@H](O)[C@@H](CO)O[C@H]1n1ccc2c(N)ncnc21; organism = dengue virus type 2; test = viral replication, Renilla luciferase reporter virus; test system = Huh-7.5.1; setting = 48 h; EC50 = 0.214 µM
SMILES = COc1ccnc(C(=O)N[C@H]2COC(=O)[C@H](Cc3ccccc3)[C@@H](OC(=O)C(C)C)[C@H](C)OC2=O)c1OCOC(=O)C(C)C; organism = Daphnia magna; setting = acute risk assessment; EC50 = 0.93 ng/mL
SMILES = CCCc1nc(N)[nH]c(=O)c1Br; organism = reovirus type 1; test = virus-induced cytopathicity; test system = Vero; EC50 = > 100 µM
SMILES = CC(C)CC(=O)OC[C@H]1O[C@@](C#N)(c2ccc3c(N)ncnn23)[C@H](O)[C@@H]1O; organism = human respiratory syncytial virus; test = viral replication; test system = HEp-2; setting = together with: verapamil 100 µM; EC50 = 0.198 µM
SMILES = NC(=O)c1ncn([C@@H]2O[C@H](CO)[C@@H](O)[C@H]2O)n1; organism = reovirus type 1; test = viral replication; test system = Vero; EC50 = > 250 µM
SMILES = COCC(=O)N1CCC[C@H](C(=O)NCc2nc(-c3ccc(C#N)cc3)cs2)C1; organism = Plasmodium falciparum; test system = Dd2; setting = together with: WLW-vs fixed ratio 1.00:0.00; EC50 = 0.013 µM and 0.016 µM
SMILES = CCOC(=O)C1(Cc2ccccc2)CN(c2ccccc2)Cc2nnn(Cc3c(F)cccc3Cl)c21 (stereo not drawn); organism = human adenovirus 2; test = viral replication; test system = HEL; EC50 = > 100 µM
SMILES = COC(=O)N[C@H](C(=O)N1CCC[C@H]1c1ncc(-c2ccc(-c3ccc(-c4cnc([C@@H]5CCCN5C(=O)[C@@H](NC(=O)OC)C(C)C)[nH]4)cc3)cc2)[nH]1)C(C)C; organism = canine parainfluenza virus; test = viral replication; test system = Vero; EC50 = 26 µM
SMILES = Nc1nc(CC(O)c2ccccc2C(F)(F)F)c(Br)c(=O)[nH]1 (stereo not drawn); organism = reovirus type 1; test = virus-induced cytopathicity; test system = Vero; EC50 = > 100 µM
SMILES = CCOC(=O)C1(Cc2ccccc2)CN(c2ccccc2)Cc2nnn(Cc3cc(OC)c(OC)c(OC)c3)c21 (stereo not drawn); organism = human adenovirus 2; test = viral replication; test system = HEL; EC50 = > 100 µM
SMILES = CCC(C)n1ncn(-c2ccc(N3CCN(c4ccc(OCC5COC(Cn6cncn6)(c6ccc(Cl)cc6Cl)O5)cc4)CC3)cc2)c1=O (stereo not drawn); organism = enterovirus D68; test = viral replication, inhibitor; setting = 72 h; EC50 = 0.43 ± 0.07 µM
SMILES = NC(=O)c1ncn([C@@H]2O[C@H](CO)[C@@H](O)[C@H]2O)n1; organism = West Nile virus; test = viral replication; test system = BHK-21; EC50 = 43 µM
SMILES = CCOC(=O)C1(Cc2ccccc2)CN(c2ccccc2)Cc2nnn(Cc3ccc(Cl)c(Cl)c3)c21 (stereo not drawn); organism = human adenovirus 2; test = viral replication; test system = HEL; EC50 = > 100 µM
SMILES = O=C(N1CCC2(CC1)C[C@@H](CN1CCCCS1(=O)=O)CCO2)C1(c2ccccc2)CCCC1; organism = human respiratory syncytial virus; test = viral replication; EC50 = > 32 µM
SMILES = CCCCc1nc(N)[nH]c(=O)c1Br; organism = reovirus type 1; test = virus-induced cytopathicity; test system = Vero; EC50 = > 100 µM
SMILES = COc1ccccc1CCn1nnc2c1CCN(c1ccc(C(F)(F)F)cc1)C2; organism = human adenovirus 2; test = viral replication; test system = HEL; EC50 = > 100 µM
SMILES = C[C@H]1CN(c2n[nH]c3nc(N[C@H]4CC[C@H](NS(=O)(=O)CCC(F)(F)F)CC4)ncc23)CCO1; organism = Leishmania donovani; test = cell growth; test system = promastigotes, LdBOB; setting = life-cycle stage comparison; EC50 = 0.0058 ± 0.0003 µM
SMILES = Cc1cc(C)c(/C=C/c2nc(N)[nH]c(=O)c2Br)c(C)c1; organism = reovirus type 1; test = virus-induced cytopathicity; test system = Vero; EC50 = > 20 µM
SMILES = COc1ccc(CCn2nnc3c2CCN(c2ccccc2)C3)cc1; organism = human adenovirus 2; test = viral replication; test system = HEL; EC50 = > 100 µM
SMILES = NC(=O)c1ncn([C@@H]2O[C@H](CO)[C@@H](O)[C@H]2O)n1; organism = reovirus type 1; test = virus-induced cytopathicity; test system = Vero; EC50 = > 250 µM
SMILES = COc1ccccc1CCn1nnc2c1CCN(c1ccccc1)C2; organism = human adenovirus 2; test = viral replication; test system = HEL; EC50 = > 100 µM
SMILES = Nc1ncnc2c1ncn2C[C@H](O)CO; organism = reovirus type 1; test = virus-induced cytopathicity; test system = Vero; EC50 = > 250 µM
SMILES = CCOC(=O)C1(Cc2ccccc2)CN(c2ccccc2)Cc2nnn(Cc3ccc(F)cc3)c21 (stereo not drawn); organism = human adenovirus 2; test = viral replication; test system = HEL; EC50 = > 100 µM

A few entries again:
SMILES = C#C[C@@]1(O)[C@H](O)[C@@H](CO)O[C@H]1n1ccc2c(N)ncnc21; organism = dengue virus type 2; test = viral replication, Renilla luciferase reporter virus; test system = Huh-7.5.1; setting = 48 h; EC50 = 0.214 µM
SMILES = Cc1cn([C@H]2C[C@H](F)[C@@H](CO)O2)c(=O)[nH]c1=O; organism = human adenovirus 2; test = viral cytopathic effect; test system = HEL; EC50 = 3.4 µM
SMILES = CCCc1nc(N)[nH]c(=O)c1Br; organism = reovirus type 1; test = virus-induced cytopathicity; test system = Vero; EC50 = > 100 µM
